Assay results from different studies.
Parts stem from different laboratories: compare values within a part only.

Study 1 — technique: RNA Bind-n-Seq; molecule type: RNA; sample: in vitro; tested at: 365 nM; baseline: no-protein control; reading: higher = stronger binding
Target: RNA binding protein fox-1 homolog 2, RRM domain, GST-SBP tag (RBFOX2, Homo sapiens, UniProt O43251-10, residues 100-194)
Notes: natural RNA segment, single round, ends assumed
All sequences stand within: GGGAGUUCUACAGUCCGACGAUC … UGGAAUUCUCGGGUGCCAA
Target sequence (chain): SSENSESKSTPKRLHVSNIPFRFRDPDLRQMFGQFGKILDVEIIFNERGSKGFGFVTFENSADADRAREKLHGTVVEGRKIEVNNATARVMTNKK
Sequence	RBNS enrichment (R)
CAGCUACUUCACACUGAGUACCUCAAAUCUGCUCUGGAGUCGAUUAUGCCACCUGUGUGUCAGGAUGCACCUGAAAGCCCUCGGCUCGGUCCUUAGACCAUCUUCCUACA	0.244
UUGAACGCUUGCUUUUAGAGAGAAAACAAUAUAGCCCCCUACCCUUUUCCCAAUCCUUUGCCCUCAAAUCAGUGACCCAAGGGAGGGGGGGAUUUAAAGGGAAGGAGUGG	4.96
UCUCAGUUCUUCAUGGGCUUCACUCUUCCCACUCACGGAAGGGAGGUAGCUCAGGGACCUCCACUGUGGGACCCUUGAGACGCUUCCACUCUGAUUCAGAAACACACUUC	0.192
AAAAAUCUGCAAGGUACCAGAUGGAGGAUUCGGGGUCAAGGUGAUGUGGCUGGCAUAGCCUGUGCUCUCCCCCAGCACCUUAUUUAGACAGCCCCCCAACAGUAGUAGGC	0.371
AUGUACAGCUGGUGCUUAGUUUUUUUUUAAUCUAAAUUUAAUUACCUUAUUGGAUAUUUGAUAUUUGGUUAUUUAAUCACAGUCAUCUUUAACAGCUUACACUGAUUGGU	0.525
GGACUGGGUUUAUCUUUCAGUUGACAAAAAUCCAAGUUGUCUUUUGCUAGAAUAAAGCAGAAGGGCUUUCCUAACAUGCUUUAGAGCUUUUAUUGCUUCUUACUGAUACU	0.36
CCCUCCCCCCAGGACCACCCAGGCCCACAUCCACCGGCUUCCUCAGCAGAUGCUGGGGUAUGGCCUCAAGACCUUCCCUCUCUCCUGAAGAUGUCUCAACCCUACAAAGA	0.45
AUUUUAAUUCUAGAUGUGUUAUCUCUCUGGGAAGUAUAGUUUAUAGAAACACAAAAUAUUUGAUUUCCUGUGUCGGCUCAGCUACAAGAAACACAACUGUUAUCUUGACA	0.935

Study 2 — technique: protein binding microarray; molecule type: double-stranded DNA, one strand shown; sample: in vitro; tested at: not given; baseline: not given; reading: higher = stronger binding
Target: Histone acetyltransferase KAT6A, winged helix 2, GST fusion (KAT6A, Homo sapiens, UniProt Q92794, residues 85-181)
Notes: 8-mer, flanks averaged, mean of 2 arrays, mostly near background
Residues (chain): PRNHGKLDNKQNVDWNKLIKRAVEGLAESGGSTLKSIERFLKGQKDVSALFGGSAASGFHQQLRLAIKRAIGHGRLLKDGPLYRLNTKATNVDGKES
Sequence	E-score
AACGCTCC	-0.106
GCTATAGC	-0.215
CAGCTCAA	0.00201
CAATCGAA	0.0965
ACCTAAAG	0.105
CGTTTTAC	-0.0191
AGGGCCGA	0.183
CTGAGTGC	-0.0497
GGTGCCCA	0.0613
ACTCGGAG	0.145
ATTACTGG	-0.0977
GTCCAACA	0.0128
CGCGTCCC	0.108
GGCCAAGA	0.0108
GTATCTAA	-0.0982
GGAGATAA	0.0475
ACTAAGAA	0.0156
CGAACCCG	-0.00788
ACGCAGCG	0.0627
CGGTCGGA	0.00125
ACACTAAA	0.122
CCGGTACG	-0.127

Study 3 — technique: protein-binding microarray; molecule type: double-stranded DNA, one strand shown; sample: in vitro; tested at: 2200 nM top; notes: 60-bp whole probe; together with: salmon DNA 0.4 mg/ml; baseline: random background probes; reading: higher = stronger binding; all sequences stand within: GCCTAGCAC … GTCTTGATTCGCTTGACGCTGCTG
Target: Interferon regulatory factor 7, full length, phosphomimetic (IRF7, Homo sapiens, UniProt Q92985, residues 1-503, S471D/S472D/S475D/S476D/S477D/S483D/S484D/S487D)
Sequence of UniProt Q92985 (whole entry, unmodified, looked up): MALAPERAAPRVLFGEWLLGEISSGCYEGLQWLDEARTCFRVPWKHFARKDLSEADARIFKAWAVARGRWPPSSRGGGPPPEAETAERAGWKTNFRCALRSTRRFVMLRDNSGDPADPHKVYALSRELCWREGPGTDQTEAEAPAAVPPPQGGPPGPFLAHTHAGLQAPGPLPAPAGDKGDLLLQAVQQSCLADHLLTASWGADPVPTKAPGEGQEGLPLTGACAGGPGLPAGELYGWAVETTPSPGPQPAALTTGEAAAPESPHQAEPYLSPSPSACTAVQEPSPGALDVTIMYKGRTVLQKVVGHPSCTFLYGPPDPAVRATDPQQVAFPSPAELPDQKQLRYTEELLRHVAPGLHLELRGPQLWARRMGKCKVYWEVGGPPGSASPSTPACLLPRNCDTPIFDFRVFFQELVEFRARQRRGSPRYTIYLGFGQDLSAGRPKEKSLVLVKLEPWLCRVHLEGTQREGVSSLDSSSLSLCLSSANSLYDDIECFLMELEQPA
Sequence	fitted relative affinity
GACGGTATCGGTCTCGGGAAGTGCTAG	0.136 z-score
CAGGAAATCAACTTTTTTTAAGTGCTA	-1.33 z-score
TTAGAACTGAGTAGCGATTAGTGCTAG	-0.746 z-score
GATGAACTGGGGTATCGAGACGTGCTA	0.096 z-score
GACGGACTGGGGTTTCGGGACGTGCTA	0.46 z-score
TTAGTTTTCCTTATCCTTTAGTGCTAG	3.08 z-score
GACGGTTTCCCTATCCTGACGTGCTAG	3.19 z-score
CCTGAAATCTCTTTCCTTACGTGCTAG	1.45 z-score
TTAGGTATCGACCCTGGGTTAGTGCTA	-0.364 z-score
TTAGGACTGCTTTTCCGTTAGTGCTAG	1.14 z-score
TTAGGTTTCAGTTTCGGTTAGTGCTAG	11.5 z-score
GACGGTCGCGGACTGGGGACGTGCTAG	-0.66 z-score
GACGAACTGGGGTATCGAGTCGTGCTA	0.442 z-score
GTAGGACTGGGGACTGGGTTAGTGCTA	-1.06 z-score
GAAGATTTCAGACTGGAGACGTGCTAG	-0.281 z-score
GAAAATCAACCAGGTGGTGTGTGCTAG	0.902 z-score
TTAGAACTGAGGTTCGATTAGTGCTAG	-0.317 z-score
TCAGTTTCTCCTTTGTAACTGTGCTAG	4.14 z-score
GACGGTTGCCTACTGCTGACGTGCTAG	0.171 z-score

Study 4 — technique: aptamer microarray, sandwich; molecule type: DNA with 2'F-ANA; sample: in vitro; tested at: 200 nM; together with: Cy3 exosite-II aptamer, 400 nM; reading: higher = stronger binding; sequence: GGTTGGTGTGGTTGG
Target: Prothrombin, mature alpha-thrombin (F2, Homo sapiens, UniProt P00734)
Notes: whole 15-mer aptamer, many near background
Modification	mean fluorescence intensity [a.u.]
2'F-ANA at 3 7 10 12 13 14 15	425
2'F-ANA at 1 3 4 6 9 12 14	102
2'F-ANA at 1 2 4 6 7 8 11 13 14	52.7
2'F-ANA at 1 2 7 8 9 10 11 13 14 15	75.4
2'F-ANA at 1 2 4 5 6 9 10 14 15	58.2
2'F-ANA at 1 2 4 8 9 10 11 15	53.6
2'F-ANA at 1 2 4 5 6 7 9	60.7
2'F-ANA at 1 2 3 7 8 9 14 15	81.8
2'F-ANA at 1 5 9 11 14	43.2
2'F-ANA at 1 3 4 5 6 7 10 12 13 14	47.6
2'F-ANA at 2 3 4 5 7 8 9 10 15	55.3
2'F-ANA at 1 2 3 6 8 10 13 15	73.3
2'F-ANA at 1 2 3 10 11 12 15	94.4
2'F-ANA at 1 3 4 7 9 10 11 12 14	53.3
2'F-ANA at 1 2 5 7 8 11 12 15	93.5
2'F-ANA at 1 4 5 7 11 14 15	72.9
2'F-ANA at 1 2 3 4 7 8 9 10 14 15	51.1
2'F-ANA at 1 2 3 4 6 7 8 10 11 12 14 15	56.8
2'F-ANA at 3 4 8 10 15	303
2'F-ANA at 3 4 5 7 8 9 11 12 13 14	69.4
2'F-ANA at 1 3 4 5 6 8 10 11 13 15	55.3
2'F-ANA at 1 3 4 8 10 12 13 14 15	52.1

For quick reference, copied from above (study 2):
Sequence	E-score
CAGCTCAA	0.00201
GGAGATAA	0.0475
CGGTCGGA	0.00125
CTGAGTGC	-0.0497
ACTCGGAG	0.145
